# Literature values as cited in several papers.
# Each numbered part shows a few of the values that one paper quotes.
# Chain of UniProt P04818 (whole entry, looked up): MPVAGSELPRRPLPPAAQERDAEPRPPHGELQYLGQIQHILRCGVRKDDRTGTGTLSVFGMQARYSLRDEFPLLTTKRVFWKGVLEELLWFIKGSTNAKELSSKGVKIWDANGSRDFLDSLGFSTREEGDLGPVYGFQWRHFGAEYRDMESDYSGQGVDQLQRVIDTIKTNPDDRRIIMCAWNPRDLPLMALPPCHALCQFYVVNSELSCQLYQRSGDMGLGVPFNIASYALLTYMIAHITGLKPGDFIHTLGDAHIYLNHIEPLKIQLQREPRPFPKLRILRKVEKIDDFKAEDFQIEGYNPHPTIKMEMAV

# Study 1
# Compound: CN(C)CC/C=C1/c2ccccc2Sc2ccc(Cl)cc21
# Cell line: MCF7
# Method: microarray
# Concentration: concentration not given
# Relative to: DMSO
assay,log2 fold change
measured: STX3 mRNA,1.99
measured: SLC38A7 mRNA,1.28
measured: TSFM mRNA,0.77

# Study 2
# Organism: Toxoplasma gondii
# Effect on: parasite growth
# Concentration: concentration not given
# Setting: published screen
Structure (SMILES),activity class
CC1(C)O[C@@H]2[C@@H](CO[C@@]3(COS(N)(=O)=O)OC(C)(C)O[C@@H]23)O1,inactive
COc1ccc2[nH]c([S+]([O-])Cc3ncc(C)c(OC)c3C)nc2c1 (centres unmarked),inactive
Cn1nnc2c(C(N)=O)ncn2c1=O,inactive

# Mixed results
SMILES,target,assay,quantity,value
CN1CCN(C(=O)C(C)(C)c2ccc(C(=O)Nc3cn4cc(-c5ccncc5)ccc4n3)cc2)CC1,CLK1 (human),cellular activity,IC50,3.49 nM
Nc1nc2[nH]cc(CCc3ccc(C(=O)N[C@@H](CCC(=O)O)C(=O)O)cc3)c2c(=O)[nH]1,"TYMS (Homo sapiens, UniProt P04818)",,Kd,340 nM
C[C@@H]1CN(c2cc(-c3n[nH]c4ccc(OC5(C)CC5)cc34)ncn2)C[C@H](C)O1,CLK4,"enzyme activity, kinase panel",IC50,255 nM
Cc1cc(C)c(-n2ccn3nc(-c4cccnc4)cc23)cc1NC(=O)c1cc(C#N)cc(S(F)(F)(F)(F)F)c1,ABL1 non-phosphorylated,DiscoverX KINOMEscan,Kd,38 nM
CCC(=O)N[C@H]1CC[C@@H](C(=O)N(C)c2ccc(-c3nc4ccccc4o3)cc2)C1,FASN,cellular activity,IC50,180 nM

# Some of these lines once more (mixed results):
SMILES,target,assay,quantity,value
C[C@@H]1CN(c2cc(-c3n[nH]c4ccc(OC5(C)CC5)cc34)ncn2)C[C@H](C)O1,CLK4,"enzyme activity, kinase panel",IC50,255 nM
Cc1cc(C)c(-n2ccn3nc(-c4cccnc4)cc23)cc1NC(=O)c1cc(C#N)cc(S(F)(F)(F)(F)F)c1,ABL1 non-phosphorylated,DiscoverX KINOMEscan,Kd,38 nM
